Experimental data from different studies.
Each line is one published result; not all experiments were run side by side. ± marks the error that the study gave.
Target: Receptor tyrosine-protein kinase erbB-2 (ERBB2, Homo sapiens, UniProt P04626)

SMILES	test	setting	how to read	quantity	result
CCCC[C@H](NC(=O)[C@H](CCC(=O)O)NC(=O)[C@H](CCCCN)NC(=O)[C@H](CO)NC(=O)[C@H](Cc1ccccc1)NC(C)=O)C(=O)N[C@@H](CCCNC(=N)N)C(=O)N[C@@H](CC(N)=O)C(=O)N[C@@H](CCCNC(=N)N)C(=O)N[C@@H](Cc1ccncc1)C(=O)N[C@@H](Cc1c[nH]c2ccccc12)C(=O)N[C@@H](CCCC(=O)NCCN(CC(=O)NCCN(CC(=O)NCCN(CC(=O)NCCN(CC(N)=O)C(=O)Cn1cnc2c(=O)[nH]c(N)nc21)C(=O)Cn1ccc(N)nc1=O)C(=O)Cn1ccc(N)nc1=O)C(=O)Cn1cnc2c(=O)[nH]c(N)nc21)C(=O)N[C@@H](CS)C(=O)N[C@@H](C)C(=O)NC1(C(=O)N[C@@H](CC(=O)O)C(=O)N2CCC[C@H]2C(=O)N[C@@H](CC(N)=O)C(=O)N[C@@H](CC(C)C)C(=O)N[C@H](C(=O)N[C@@H](CC(N)=O)C(=O)N[C@@H](CCC(N)=O)C(=O)N[C@@H](CCC(N)=O)C(=O)N[C@@H](CCCCN)C(=O)N[C@@H](CCCNC(=N)N)C(=O)N[C@@H](C)C(=O)N[C@@H](CCCCNC(=O)CN(CCNC(=O)CN(CCNC(=O)CN(CCNC(=O)CN(CCNC(=O)[C@H](CCCNC(=N)N)NC(C)=O)C(=O)Cn2ccc(N)nc2=O)C(=O)Cn2cnc3c(=O)[nH]c(N)nc32)C(=O)Cn2cnc3c(=O)[nH]c(N)nc32)C(=O)Cn2ccc(N)nc2=O)C(=O)N[C@H](C(=O)N[C@@H](CCCNC(=N)N)C(=O)N[C@@H](CO)C(=O)N[C@H](C(=O)N[C@@H](Cc2ccc(O)cc2)C(=O)N[C@@H](CCC(=O)O)C(=O)N[C@@H](CCC(=O)O)C(=O)NCC(N)=O)[C@@H](C)CC)[C@@H](C)CC)[C@@H](C)O)CCCCCC1	binding, affinity selection mass spectrometry	1 h, 4 °C, unit not given	reference: control-subtracted	enrichment	-0.67
C#Cc1cccc(Oc2ccc(-c3nn([C@@H]4CCCN(C(=O)C=C)C4)c4ncnc(N)c34)cc2)c1	ABPP-SILAC	1 µM, 1 h	reference: DMSO	SILAC ratio	20
C=CC(=O)N1CCC[C@@H](n2nc(-c3ccc(Oc4ccccc4)cc3)c3c(N)ncnc32)C1	–	1 µM	–	remaining activity	28.6%
Cc1nc(Nc2ncc(C(=O)Nc3c(C)cccc3Cl)s2)cc(N2CCN(CCO)CC2)n1	kinase activity, inhibitor, Kinase-Glo MAX	0.01 µM	–	inhibition	38.3%
COc1ccc(F)cc1C(=O)NCc1ccc(-c2nn([C@@H](C)C(F)(F)F)c(N)c2C(N)=O)cc1	kinase activity, inhibitor, HotSpot radiometric	100 nM, with: ATP 10 µM	–	remaining activity	97.3 ± 0.2%
CNc1ncc2c(/C=C/C(=O)N3CCC(OC)CC3)nn(Cc3cccc(C(F)(F)F)c3)c2n1	kinase activity, inhibitor	1 µM	reference: untreated control	remaining activity	90%
CCCC[C@H](NC(=O)[C@H](CCC(=O)O)NC(=O)[C@H](CCCCN)NC(=O)[C@H](CO)NC(=O)[C@H](Cc1ccccc1)NC(C)=O)C(=O)N[C@@H](CCCNC(=N)N)C(=O)N[C@@H](CC(N)=O)C(=O)N[C@@H](CCCNC(=N)N)C(=O)N[C@@H](Cc1ccc(O)cc1)C(=O)N[C@@H](Cc1csc2ccccc12)C(=O)N[C@@H](CCCC(=O)NCCN(CC(=O)NCCN(CC(=O)NCCN(CC(=O)NCCN(CC(N)=O)C(=O)Cn1cnc2c(=O)[nH]c(N)nc21)C(=O)Cn1ccc(N)nc1=O)C(=O)Cn1ccc(N)nc1=O)C(=O)Cn1cnc2c(=O)[nH]c(N)nc21)C(=O)N[C@@H](CS)C(=O)N[C@@H](C)C(=O)N[C@@H](CC(C)C)C(=O)N[C@@H](CC(=O)O)C(=O)N1CCC[C@H]1C(=O)N[C@@H](CC(N)=O)C(=O)N[C@@H](CC(C)C)C(=O)N[C@H](C(=O)N[C@@H](CC(N)=O)C(=O)N[C@@H](CCC(N)=O)C(=O)N[C@@H](CCC(N)=O)C(=O)N[C@@H](CCCCN)C(=O)N[C@@H](CCCNC(=N)N)C(=O)N[C@@H](C)C(=O)N[C@@H](CCCCNC(=O)CN(CCNC(=O)CN(CCNC(=O)CN(CCNC(=O)CN(CCNC(=O)[C@H](CCCNC(=N)N)NC(C)=O)C(=O)Cn1ccc(N)nc1=O)C(=O)Cn1cnc2c(=O)[nH]c(N)nc21)C(=O)Cn1cnc2c(=O)[nH]c(N)nc21)C(=O)Cn1ccc(N)nc1=O)C(=O)N[C@H](C(=O)N[C@@H](CCCNC(=N)N)C(=O)N[C@@H](CO)C(=O)N[C@H](C(=O)N[C@@H](Cc1ccc(O)cc1)C(=O)N[C@@H](CCC(=O)O)C(=O)N[C@@H](CCC(=O)O)C(=O)NCC(=O)N[C@@H](CCC(=O)O)C(N)=O)[C@@H](C)CC)[C@@H](C)CC)[C@@H](C)O	binding, affinity selection mass spectrometry	1 h, 4 °C, unit not given	reference: control-subtracted	enrichment	2.62
CC#CC(=O)N1CCC[C@H]1c1nc(-c2ccc(C(=O)Nc3ccccn3)cc2)c2c(N)nccn12	kinase activity, inhibitor, HotSpot radiometric	100 nM, with: ATP 10 µM	–	remaining activity	99.5 ± 1.3%
